Published values of several laboratories.
Several values in a cell are separate wells, animals, samples, runs or records. Numbers after ± are the reported error.

The cytokine level of CC(C)C[C@@H]1NC(=O)[C@@H](Cc2c[nH]c3ccccc23)NC(=O)[C@H](CCCNC(=N)N)NC(=O)[C@@H](CCC(=O)O)NC(=O)[C@H](CCC(N)=O)NC(=O)[C@@H](CCC(=O)O)NC(=O)[C@H](CCCNC(=N)N)NC(=O)[C@@H](Cc2c[nH]c3ccccc23)NC1=O is reported as 200 ± 70 pg/g tissue (Luminex, item: M-CSF; LDLr-/- mice, Western diet, liver; dose not given, 4 weeks).
For Cc1ccc(C2=CC(C)(C)Oc3ccc(-c4ccc(-c5ccc(C(=O)O)cc5)[nH]4)cc32)cc1, “time to infertility” read at most 4 weeks (CD1 mouse male; oral, dose not given).
Under “log2 fold change”, CCCCCC1=C(NCC)C(=O)C(C/C=C(\C)CCC=C(C)C)=C(O)C1=O is recorded as 2.12 (RNA-Seq, item: Irf7 mRNA; mice, AAV9-A53T α-synuclein lesion, lesioned striatum; oral, dose not given; reference: vehicle-treated lesioned mice).
COc1ccccc1-c1n[nH]c2nc(N[C@H]3CC[C@H](NS(=O)(=O)CC(C)C)CC3)ncc12 gave a relative abundance of 1.14 (bead binding, competition bead pull-down, item: LINJ.24.1910; Leishmania donovani extract; 10 µM; reference: vehicle).
CCc1nnc(-c2c(OC)cc(-c3cnc4cc(-c5cnn(C)c5)ccn34)cc2OC)o1 — result for “osteoid surface/bone surface”: 2.3 ± 0.597% (histomorphometry; male C57BL/6J mouse, tibia; oral gavage, 10 mg/kg once daily, 3 wk).
O=c1n(CCNCCOS(=O)(=O)c2ccccc2)c(=O)n(S(=O)(=O)c2ccccc2)c(=O)n1S(=O)(=O)c1ccccc1 gave an inhibition of 53.7% (DPPH scavenging; 500 µg/mL).
O=C(O)c1ccc(-c2nc(-c3ccccc3Cl)c3sccn23)cc1 has a spleen weight of 0.0031% and 0.0033% and 0.0029% (mouse; dose not given, day 10, added: 5-fluorouracil; reference: body weight).
The relative abundance of COc1ccccc1-c1n[nH]c2nc(NC3CCN(C(=O)Cc4ccc(F)cc4F)CC3)ncc12 is reported as 1.37 (bead binding, competition bead pull-down, item: LINJ.25.1850; Leishmania donovani extract; 10 µM; reference: vehicle).
O=C(NCc1cc(F)cc(F)c1)[C@@]1(O)CCN(c2ccc3[nH]ccc3c2)C1=O: “median survival time” 16 days (sample B PDX mouse; dose not given, RTV endpoint 500%).

For quick reference, copied from above:
O=C(O)c1ccc(-c2nc(-c3ccccc3Cl)c3sccn23)cc1 has a spleen weight of 0.0031% and 0.0033% and 0.0029% (mouse; dose not given, day 10, added: 5-fluorouracil; reference: body weight).
